# Results collected from several papers.
# Each numbered part is a random draw from the data of one study; scales do not carry over between parts.

# Block 1 — method: protein binding microarray; molecule type: double-stranded DNA, one strand shown; sample: in vitro; tested at: not given; baseline: not given; direction: higher = stronger binding
# Target: Histone acetyltransferase KAT6A, winged helix 2, GST fusion (KAT6A, Homo sapiens, UniProt Q92794, residues 85-181)
# Setting: 8-mer, flanks averaged, mean of 2 arrays, mostly near background
# Construct (chain): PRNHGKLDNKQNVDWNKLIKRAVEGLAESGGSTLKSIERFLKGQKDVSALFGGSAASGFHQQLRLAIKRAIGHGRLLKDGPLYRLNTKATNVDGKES
Sequence,E-score
AGACTCAG,-0.0787
ACGTAGTA,0.06
AGTTAAGG,-0.0667
ACTGGAAC,-0.0888
TGACACCA,0.0408
AGCCCCGC,0.01

# Block 2 — method: universal PBM; molecule type: double-stranded DNA, one strand shown; sample: in vitro; tested at: 600 nM; direction: higher = stronger binding
# Target: Sal-like protein 4, full length isoform A (SALL4, Homo sapiens, UniProt Q9UJQ4, residues 1-1053)
# Chain of UniProt Q9UJQ4 (whole entry, looked up): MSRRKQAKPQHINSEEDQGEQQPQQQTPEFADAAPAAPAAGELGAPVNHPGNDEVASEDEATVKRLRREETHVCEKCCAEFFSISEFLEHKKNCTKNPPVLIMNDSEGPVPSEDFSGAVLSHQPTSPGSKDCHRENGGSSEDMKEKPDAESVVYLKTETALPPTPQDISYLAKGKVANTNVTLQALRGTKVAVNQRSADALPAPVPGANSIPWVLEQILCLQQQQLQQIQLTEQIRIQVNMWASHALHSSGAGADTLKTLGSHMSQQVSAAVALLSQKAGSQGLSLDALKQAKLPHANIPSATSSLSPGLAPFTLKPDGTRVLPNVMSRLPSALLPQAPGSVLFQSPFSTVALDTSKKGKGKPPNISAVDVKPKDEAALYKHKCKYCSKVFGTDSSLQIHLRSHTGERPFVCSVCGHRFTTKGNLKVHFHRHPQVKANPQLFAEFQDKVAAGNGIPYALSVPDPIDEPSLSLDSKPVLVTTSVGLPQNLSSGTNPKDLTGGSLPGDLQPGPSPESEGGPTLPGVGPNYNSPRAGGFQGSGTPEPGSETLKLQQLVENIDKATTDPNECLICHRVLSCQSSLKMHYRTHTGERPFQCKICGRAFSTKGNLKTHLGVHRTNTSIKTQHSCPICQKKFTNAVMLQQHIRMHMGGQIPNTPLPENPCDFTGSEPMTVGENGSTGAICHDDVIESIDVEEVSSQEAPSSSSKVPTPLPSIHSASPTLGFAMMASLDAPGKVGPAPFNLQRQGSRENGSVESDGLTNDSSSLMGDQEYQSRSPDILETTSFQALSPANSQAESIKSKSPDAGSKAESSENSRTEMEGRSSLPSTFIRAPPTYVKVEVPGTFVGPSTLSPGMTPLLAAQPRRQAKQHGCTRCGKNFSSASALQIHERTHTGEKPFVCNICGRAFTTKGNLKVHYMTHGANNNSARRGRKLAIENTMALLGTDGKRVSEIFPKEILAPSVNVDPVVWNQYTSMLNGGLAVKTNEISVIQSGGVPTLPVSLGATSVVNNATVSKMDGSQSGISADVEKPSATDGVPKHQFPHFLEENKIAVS
# Setting: 8-mer, flanks averaged, mean of replicates
Sequence,E-score
CGCATAAC,0.26
ACTGGGTA,-0.0449
GGGCTCGA,-0.193
CAGAACAA,0.231

# Block 3 — method: aptamer microarray, sandwich; molecule type: DNA with 2'F-ANA; sample: in vitro; tested at: 200 nM; with: Cy3 exosite-II aptamer, 400 nM; direction: higher = stronger binding; sequence: GGTTGGTGTGGTTGG
# Target: Prothrombin, mature alpha-thrombin (F2, Homo sapiens, UniProt P00734)
# Setting: whole 15-mer aptamer, many near background
Modification,mean fluorescence intensity
2'F-ANA at 2 6 7 12 14,171 a.u.
2'F-ANA at 3 6 7 8 9 10 12 14,439 a.u.
2'F-ANA at 1 2 4 5 7 9 11 12 14,50.7 a.u.
2'F-ANA at 2 3 5 8 10 11 14 15,52.3 a.u.
2'F-ANA at 1 2 4 5 6 8 12 13 14,50.9 a.u.

# Further values, each from its own experiment
Molecule,target,assay,system,conditions,scale,endpoint,result
"PhoQ, residues 284 288 289 292 302 303 SASVAL","PhoP, residues 12 14 15 18 19 SMASL (Escherichia coli, UniProt P23836)","Sort-seq, item: YFP reporter",E. coli,"PhoQ-PhoP variant library, with: 10 µM Mg2+","baseline: high Mg2+ state, higher = stronger signaling",fold induction,1.57

# Excerpt of the above (block 2):
Sequence,E-score
CGCATAAC,0.26
CAGAACAA,0.231
